Published values from different studies.
Each numbered part is a random draw from the data of one study; scales do not carry over between parts.

Series 1 — technique: RNA Bind-n-Seq; molecule type: RNA; sample: in vitro; concentration: 365 nM; reference: no-protein control; reading: higher = stronger binding
Target: RNA binding protein fox-1 homolog 2, RRM domain, GST-SBP tag (RBFOX2, Homo sapiens, UniProt O43251-10, residues 100-194)
Setting: natural RNA segment, single round, ends assumed
Shared flanks, not repeated: GGGAGUUCUACAGUCCGACGAUC … UGGAAUUCUCGGGUGCCAA
Construct (chain): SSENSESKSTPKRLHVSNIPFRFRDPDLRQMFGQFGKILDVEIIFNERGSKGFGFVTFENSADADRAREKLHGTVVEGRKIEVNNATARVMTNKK
Sequence	RBNS enrichment (R)
ACCACUGGAGGGCUUUGCUCCAGAAUGCAGACCGCUCUGCCAAGGCCUCCAUGUCUGCUUGCAUCUAGCUUGCACAAAGAUAGAUCUUUGUGGUGAGAUCAUCUGUGUGG	1.16
AGUUUCCCUAGAUAUACUCCUGCCUCCAGGUGCUGGGACACACCUUUGCAAAAUGCUGUGGGAAGCAGGAGCUGGGGAGCUGUGUUAAGUCAAAGUAGAAACCCUCCAGU	0.503
GGAAACGACCAGGGCUGUGAAGAUCUACAGAGGAAGUACUCCAGUGUGGGGGAGGCAAGGGAAGAGGACGAAAAUGAUGAGAAUGACACUGAGGUCAUUGUUUAGAGCAG	2.04
UAGAUAGACAUUAAAGUAAAGCAGCUGUUUGUUAUUGAUAAUAAAAUACUAAGUAUUAUAAAACUGCUUUUGGUCUGUUUCUCUCAAGUUCUGUAUUAUUUAUUCUAUCA	0.86
CACAUUUCUAAAGAAAGAGUGAAUAGGCUGGGCAUGGUGGCUCAAGCCUCUAAUCUCAACGCUUUGGGAGGCUGAGGCAGGAGGAUCGCUUGAGGCCAGGAGUUUGAGAC	0.563
CUUGUGCGGAUGUCAGGGGACAUUACUGUUGCUAAUAAAGUCCAAAGUGGCCAAUGCCUUUCCCAAAGCAGUGUUGUUAUUGAAUCUGGCCCCUUCCCGAGGGGAUAAAA	0.588
UUGUAGUUGCCUUUGGGUUUUUGUCUUUGUUUUUCUGUCUUUUGUUAAAUCUGCUCUUAAAGUUCACCAAAGCUAAGACAGUUGCCAGGGCAGACAGGAGUCCAGGCUCC	0.345
UUUGUGCUAAAACAUGGAAAAUUGUCACUGUGUUGAUGAGGUUUCCCCCAUUCUGCUGCCUUUGGGACACUGUUUUCGUUAAACUUGGUCUUGGCUGCAUUCUUUUUUUU	0.666

Series 2 — technique: competition protein-binding microarray; molecule type: double-stranded DNA, one strand shown; sample: in vitro; concentration: 2 µM; added: Cbf1 competitor, 0.05 µM; reading: higher = stronger binding; shared flanks, not repeated: … GTCTTGATTCGCTTGACGCTGCTG
Target: Phosphate system positive regulatory protein PHO4, full length, GST-tagged (PHO4, Saccharomyces cerevisiae, UniProt P07270, residues 1-312)
Setting: whole 60-bp probe, lowest competitor level
Target sequence (chain): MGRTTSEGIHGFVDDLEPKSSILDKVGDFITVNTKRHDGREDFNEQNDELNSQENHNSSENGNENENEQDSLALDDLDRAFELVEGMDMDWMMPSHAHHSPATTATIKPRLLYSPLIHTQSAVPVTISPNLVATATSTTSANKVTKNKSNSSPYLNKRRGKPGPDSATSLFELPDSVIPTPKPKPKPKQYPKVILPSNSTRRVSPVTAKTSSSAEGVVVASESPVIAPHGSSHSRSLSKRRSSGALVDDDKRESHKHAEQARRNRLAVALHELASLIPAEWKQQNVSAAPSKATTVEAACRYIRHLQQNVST
Sequence	fluorescence intensity [a.u.]
TCGTCGATGAAGCTGAACGTGCAAAGCTGGACTTAC	10900
CTAACGAAGGTTTGCGTGGTGGGTGACAAGCCAAGT	5990
GTTATTAAACTCCGTCACAGTAAGGCATACCCCATT	4240
CATACCCAACCTTGAAAGGTGGGTGAAGATATTTGT	3950
CGTCCTAGTGATTGGTGAGTGGGTGCCATGAGGAAG	7260
CATACCCAACCTTGTTGCGTGGGTGAAGATATTTGT	7020
ATGAATACACTTTGAAACGTGACGGTGCCATCGATG	9540
ATGGTTTATCCCGGCCACGTGTGTTACCTCCGGTGA	17000
CTTTCAAATGTGGGTGACGTGCTAACTTGGGGCTTG	6870
TACAAATTGCCCGTCCACGTTCGTCGTTCTAACTTC	10800
ACAAGTTTTACTCGGCACGTCAATTCGATGAAGCTA	4740
AACATGAAATACGAATTTGTGATGAAGATACCCTCA	3030
TCAATAAATAATGCTCGCGTGGCCGAATGGCAACGC	8920
CCTCCGTTAGGTTGTCATGCCCCGAGGGTGCGAGGT	5880
GCGGAGGGGGCAGCCCATGTGCTGCGATTCGCTCCC	10300
CATACCCAACCTTGTTCTGTGGGTGAAGATATTTGT	3650
CTTCTGTAAATTTGTCGCGTGGGTGGACGCGCCCCG	7990
TGGATTTTTCCAAAACACGTGTCGGAAACTTATTTT	17600
AAATTACTAAGTTGTCACGAGACTTACCCCGTATGA	6750

Series 3 — technique: protein binding microarray; molecule type: double-stranded DNA, one strand shown; sample: in vitro; concentration: not given; reference: not given; reading: higher = stronger binding
Target: Histone acetyltransferase KAT6A, winged helix 1, GST fusion (KAT6A, Homo sapiens, UniProt Q92794, residues 1-85)
Setting: 8-mer, flanks averaged, mean of 2 arrays, mostly near background
Residues (chain): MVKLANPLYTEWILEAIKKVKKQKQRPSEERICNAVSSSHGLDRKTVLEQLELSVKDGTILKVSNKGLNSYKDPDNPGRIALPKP
Sequence	E-score
GCATCCTA	-0.0326
TACTGAAA	0.0523
AAGTGATG	-0.237
AATCTAAG	-0.141
ACCACTCG	-0.0227
GCAACTGC	0.179
GCTAGGAC	0.0121
CTTTGCCA	-0.15
GAGCGTGA	0.189
ATCAGGGC	-0.0536
AGTCTTAG	-0.131
CTGGACTC	-0.319
ATGCCCAT	-0.161
GTGGTACA	-0.127
AACACTAC	-0.0253
AGCGCGCC	0.455
CGCACGAG	0.169
GCTAGTAC	0.0742
TGGTGAAA	-0.157
AGCACGGA	0.082
AAGCTAAC	-0.163
GAGACGGC	0.303

Series 4 — technique: RNA Bind-n-Seq; molecule type: RNA; sample: in vitro; concentration: 1 µM; setting: whole 134-nt RNA, ends assumed; added: 150 mM KCl; reference: input library; reading: higher = stronger binding
Target: Ras GTPase-activating protein-binding protein 1, C-terminal RGG region (G3BP1, Homo sapiens, UniProt Q13283)
Chain of UniProt Q13283 (whole entry, looked up): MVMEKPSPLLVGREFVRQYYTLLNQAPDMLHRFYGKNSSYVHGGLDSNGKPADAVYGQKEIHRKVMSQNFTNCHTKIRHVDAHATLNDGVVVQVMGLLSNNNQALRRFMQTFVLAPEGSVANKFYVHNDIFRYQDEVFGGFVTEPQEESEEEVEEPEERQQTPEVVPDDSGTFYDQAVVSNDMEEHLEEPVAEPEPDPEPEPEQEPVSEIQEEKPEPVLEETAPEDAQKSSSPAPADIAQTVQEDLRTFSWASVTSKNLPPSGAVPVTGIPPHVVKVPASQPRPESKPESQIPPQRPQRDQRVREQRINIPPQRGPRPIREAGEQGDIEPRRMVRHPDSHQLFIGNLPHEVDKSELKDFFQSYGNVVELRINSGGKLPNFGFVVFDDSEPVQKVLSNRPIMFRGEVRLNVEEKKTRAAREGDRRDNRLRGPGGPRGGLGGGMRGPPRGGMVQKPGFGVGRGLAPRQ
Shared flanks, not repeated: GGGAGUUCUACAGUCCGACGAUC … UGGAAUUCUCGGGUGUCAAGG
Sequence	log2 enrichment
CACAGACAACACGCACCCACACAGACACAGAGGGAAGGGGUUGGGAUGUGGACAGGGUGCACAGCAGGGCGGGGUAGGACCCCAGCCCCU	-0.334
CUCAAGUCCUGUGCUACACAUCGUAUGUACCGAAUCGGCCGGCCGGGGCCGGGGAAAGUAUUAUGUUACGCCGUUCGGAUCUGCACUUCC	-1.38
UGCUCUCCGUGCCACAUGCGCCCGCAGGUUACGCCAAGGAGGCCCUGAAUCUGGCGCAGAUGCAGGAGCAGACGCUGCAGUUGGAGCAAC	-2.34
CAAGUCCUGUGCUACACAUCGUAUGUACCGAAUCGGAAAAGGAAAAGGAAAAGGGGAAAGUAUUAUGUUACGCCGUUCGGAUCUGCACUU	-1.93
UGUGCUACACAUCGUAUGUACCGAAUCGGGGUUUUUGGGGUUUUUUUGGGGAAAAAAAGGGGAAAGUAUUAUGUUACGCCGUUCGGAUCU	0.588
AGUCCUGUGCUACACAUCGUAUGUACCGAAUCGGGUGGGUUUUUGGGAAAAAAAGGGAAAGUAUUAUGUUACGCCGUUCGGAUCUGCACU	-0.257
GCAGGAAGUAAAAACAAAUGGAAAUGCUUCGGAUAGUGGCAGGGGUGGGGGUUGCUAAGGAAAGGGUGAAAUGGGAGUGGGUAAAGAGUU	1.63
AAGUCCUGUGCUACACAUCGUAUGUACCGAAUCGGGAAAAGGGAAAAGGGAAAAGGAAAGUAUUAUGUUACGCCGUUCGGAUCUGCACUU	-1.61
CAAGUCCUGUGCUACACAUCGUAUGUACCGAAUCGGGGUGGGGAAAGGGGAGGGGAAAGUAUUAUGUUACGCCGUUCGGAUCUGCACUUC	3.09

Repeated from above (series 4):
Sequence	log2 enrichment
CACAGACAACACGCACCCACACAGACACAGAGGGAAGGGGUUGGGAUGUGGACAGGGUGCACAGCAGGGCGGGGUAGGACCCCAGCCCCU	-0.334
CUCAAGUCCUGUGCUACACAUCGUAUGUACCGAAUCGGCCGGCCGGGGCCGGGGAAAGUAUUAUGUUACGCCGUUCGGAUCUGCACUUCC	-1.38
UGCUCUCCGUGCCACAUGCGCCCGCAGGUUACGCCAAGGAGGCCCUGAAUCUGGCGCAGAUGCAGGAGCAGACGCUGCAGUUGGAGCAAC	-2.34
CAAGUCCUGUGCUACACAUCGUAUGUACCGAAUCGGAAAAGGAAAAGGAAAAGGGGAAAGUAUUAUGUUACGCCGUUCGGAUCUGCACUU	-1.93
UGUGCUACACAUCGUAUGUACCGAAUCGGGGUUUUUGGGGUUUUUUUGGGGAAAAAAAGGGGAAAGUAUUAUGUUACGCCGUUCGGAUCU	0.588
AGUCCUGUGCUACACAUCGUAUGUACCGAAUCGGGUGGGUUUUUGGGAAAAAAAGGGAAAGUAUUAUGUUACGCCGUUCGGAUCUGCACU	-0.257
